# Results of several laboratories.
# Compare with care: the assays were run in different laboratories. ± marks the error that the study gave.
# sdiA: Regulatory protein SdiA (sdiA, Escherichia coli, UniProt P07026)
# UniProt P07026, sequence (whole entry, looked up): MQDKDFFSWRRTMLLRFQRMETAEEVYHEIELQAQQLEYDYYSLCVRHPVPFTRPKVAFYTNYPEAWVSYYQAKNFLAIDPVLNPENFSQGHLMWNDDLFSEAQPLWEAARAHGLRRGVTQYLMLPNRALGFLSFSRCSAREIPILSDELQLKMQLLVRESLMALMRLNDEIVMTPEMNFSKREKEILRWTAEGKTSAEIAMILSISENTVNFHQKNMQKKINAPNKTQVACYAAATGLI
# NPY4R: Neuropeptide Y receptor type 4 (NPY4R, Homo sapiens, UniProt P50391)
# UniProt P50391, sequence (whole entry, looked up): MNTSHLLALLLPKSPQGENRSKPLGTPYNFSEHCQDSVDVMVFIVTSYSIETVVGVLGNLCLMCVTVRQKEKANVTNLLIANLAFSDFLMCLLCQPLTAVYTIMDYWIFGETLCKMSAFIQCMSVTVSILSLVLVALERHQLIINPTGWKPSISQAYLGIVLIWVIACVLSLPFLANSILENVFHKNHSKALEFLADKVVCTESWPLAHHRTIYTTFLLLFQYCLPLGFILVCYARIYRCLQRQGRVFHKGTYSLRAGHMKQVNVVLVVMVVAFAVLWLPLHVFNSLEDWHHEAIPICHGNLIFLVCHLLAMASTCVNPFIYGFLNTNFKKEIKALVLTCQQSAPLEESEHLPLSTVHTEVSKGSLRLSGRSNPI
# ADCYAP1R1 del89-109: Pituitary adenylate cyclase-activating polypeptide type I receptor (ADCYAP1R1, Homo sapiens, UniProt P41586, del89-109)
# UniProt P41586, sequence (whole entry, unmodified, looked up): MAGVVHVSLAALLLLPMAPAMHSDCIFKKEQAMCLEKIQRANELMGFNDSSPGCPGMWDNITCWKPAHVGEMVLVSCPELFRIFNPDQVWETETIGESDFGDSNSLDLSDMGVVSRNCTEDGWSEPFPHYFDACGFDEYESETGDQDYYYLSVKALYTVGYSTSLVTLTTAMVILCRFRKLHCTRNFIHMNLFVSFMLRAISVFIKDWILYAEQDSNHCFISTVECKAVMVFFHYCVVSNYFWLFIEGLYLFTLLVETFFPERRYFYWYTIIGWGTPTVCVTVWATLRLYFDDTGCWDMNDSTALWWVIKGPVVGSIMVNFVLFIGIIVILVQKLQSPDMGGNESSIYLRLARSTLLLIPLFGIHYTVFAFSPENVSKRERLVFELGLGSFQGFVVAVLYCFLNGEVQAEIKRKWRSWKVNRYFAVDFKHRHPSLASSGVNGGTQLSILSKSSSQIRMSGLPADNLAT
# UniProt P21554, sequence (whole entry, unmodified, looked up): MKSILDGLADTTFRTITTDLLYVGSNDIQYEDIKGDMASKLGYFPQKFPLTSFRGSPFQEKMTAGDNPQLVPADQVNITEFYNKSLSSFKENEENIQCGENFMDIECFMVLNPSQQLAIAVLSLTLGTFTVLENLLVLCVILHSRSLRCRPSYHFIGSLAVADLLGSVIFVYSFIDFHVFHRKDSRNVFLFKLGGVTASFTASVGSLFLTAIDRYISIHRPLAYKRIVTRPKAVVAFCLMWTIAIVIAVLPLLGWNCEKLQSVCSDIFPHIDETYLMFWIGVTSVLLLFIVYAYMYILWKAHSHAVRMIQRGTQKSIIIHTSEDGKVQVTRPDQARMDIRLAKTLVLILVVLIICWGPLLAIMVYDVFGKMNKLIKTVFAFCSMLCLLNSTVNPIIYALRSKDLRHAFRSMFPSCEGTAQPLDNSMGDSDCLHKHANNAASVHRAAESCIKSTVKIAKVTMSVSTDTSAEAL
# UniProt Q92918, sequence (whole entry, looked up): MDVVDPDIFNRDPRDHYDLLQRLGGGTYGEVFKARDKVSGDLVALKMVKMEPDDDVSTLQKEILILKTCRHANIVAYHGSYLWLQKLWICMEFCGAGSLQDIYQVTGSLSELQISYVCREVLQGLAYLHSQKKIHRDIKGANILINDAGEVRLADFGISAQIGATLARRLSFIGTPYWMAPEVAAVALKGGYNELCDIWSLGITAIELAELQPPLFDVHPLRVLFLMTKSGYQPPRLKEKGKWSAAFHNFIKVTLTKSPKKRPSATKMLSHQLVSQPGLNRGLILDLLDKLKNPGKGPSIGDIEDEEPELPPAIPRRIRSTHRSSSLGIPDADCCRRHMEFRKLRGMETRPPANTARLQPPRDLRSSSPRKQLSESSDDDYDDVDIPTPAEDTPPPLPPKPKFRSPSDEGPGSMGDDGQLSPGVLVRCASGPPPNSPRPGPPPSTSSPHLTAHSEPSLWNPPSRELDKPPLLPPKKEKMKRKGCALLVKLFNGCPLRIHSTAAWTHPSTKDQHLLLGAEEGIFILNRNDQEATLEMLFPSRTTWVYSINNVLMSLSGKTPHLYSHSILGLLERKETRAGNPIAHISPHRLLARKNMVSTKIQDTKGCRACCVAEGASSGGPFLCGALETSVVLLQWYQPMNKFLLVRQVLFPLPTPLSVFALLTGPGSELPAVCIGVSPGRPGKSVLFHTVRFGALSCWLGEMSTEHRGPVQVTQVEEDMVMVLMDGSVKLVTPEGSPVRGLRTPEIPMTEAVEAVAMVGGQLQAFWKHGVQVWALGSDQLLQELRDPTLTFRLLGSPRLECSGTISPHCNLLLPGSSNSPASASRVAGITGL
# UniProt O33336, sequence (whole entry, looked up): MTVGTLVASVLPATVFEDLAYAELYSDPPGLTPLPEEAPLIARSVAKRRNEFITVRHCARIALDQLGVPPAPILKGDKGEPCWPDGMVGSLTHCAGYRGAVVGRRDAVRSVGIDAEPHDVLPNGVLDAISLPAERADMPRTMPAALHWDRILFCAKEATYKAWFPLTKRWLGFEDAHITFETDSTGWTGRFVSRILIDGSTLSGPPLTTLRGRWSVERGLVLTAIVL
Compound,tested on,test,system,conditions,scale,endpoint,value
C#CCN(Cc1ccc2nc(CC)[nH]c(=O)c2c1)c1ccc(C(=O)NC(CCC(=O)O)C(=O)O)cc1 (stereo not shown),"4'-phosphopantetheinyl transferase PptT (Mycobacterium tuberculosis, UniProt O33336)","enzyme activity, inhibitor, FP",,,,IC50,53 nM
CN(C)[C@H]1C[C@@]23CC[C@@]4(O2)C(=CC[C@]2(C)[C@@H](c5ccc6ccncc6c5)CC[C@H]24)C=C3[C@@H](O)[C@@H]1O,"MAP4K1 (Homo sapiens, UniProt Q92918)","ATP probe labelling, inhibitor, KiNativ profiling",,0.1 µM,,inhibition,-1.6%
COc1cccc(CC(=O)N[C@H]2CCOC2=O)c1,sdiA,,,,,EC50,1.42 nM
CC(=O)N[C@@H](CCCNC(=N)N)C(=O)N[C@@H](Cc1ccc(O)cc1)C(=O)N[C@@H](CCCNC(=N)N)C(=O)N[C@@H](CC(C)C)C(=O)N[C@@H](CCCNC(=N)NC(=O)NCCCCN)C(=O)N[C@@H](Cc1ccc(O)cc1)C(N)=O,NPY4R,"β-arrestin-2 recruitment, antagonist",HEK293T-ARRB2,added: 3 nM human pancreatic polypeptide,,Kb,3840 ± 55 nM
O=C(Cc1cccc(I)c1)N[C@H]1CCOC1=O,sdiA,,,,,EC50,1.86 nM
Cc1ccc2c(C(C[N+](=O)[O-])c3cccs3)c(-c3ccccc3)[nH]c2c1 (stereo not shown),"CNR1 (Homo sapiens, UniProt P21554, N393A)","receptor activation, agonist",,,,EC50,280 ± 70 nM
CC(=O)N[C@@H](CCCNC(=N)N)C(=O)N[C@@H](Cc1ccc(O)cc1)C(=O)N[C@H]1CCCNC(=N)NC(=O)NCCCCNC(=O)[C@H](Cc2ccc(O)cc2)NC(=O)[C@H](CCCNC(=N)N)NC(=O)[C@H](CC(C)C)NC1=O,NPY4R,"β-arrestin-2 recruitment, antagonist",HEK293T-ARRB2,added: 3 nM human pancreatic polypeptide,,Kb,1880 ± 320 nM
CSCC[C@H](NC(=O)[C@H](CCC(N)=O)NC(=O)[C@H](CCCCN)NC(=O)[C@H](CCCNC(=N)N)NC(=O)[C@H](Cc1ccc(O)cc1)NC(=O)[C@H](CCCNC(=N)N)NC(=O)[C@H](CO)NC(=O)[C@H](Cc1ccc(O)cc1)NC(=O)[C@H](CO)NC(=O)[C@H](CC(=O)O)NC(=O)[C@@H](NC(=O)[C@@H](N)Cc1ccccc1)[C@@H](C)O)C(=O)N[C@@H](C)C(=O)N[C@H](C(=O)N[C@@H](CCCCN)C(=O)N[C@@H](CCCCN)C(=O)N[C@@H](Cc1ccc(O)cc1)C(=O)N[C@@H](CC(C)C)C(=O)N[C@@H](C)C(=O)N[C@@H](C)C(=O)N[C@H](C(=O)N[C@@H](CC(C)C)C(=O)NCC(=O)N[C@@H](CCCCN)C(=O)N[C@@H](CCCNC(=N)N)C(=O)N[C@@H](Cc1ccc(O)cc1)C(=O)N[C@@H](CCCCN)C(=O)N[C@@H](CCC(N)=O)C(=O)N[C@@H](CCCCn1cc(C[C@H](NC(=O)CNC(=O)[C@H](CO)NC(=O)[C@H](CCCNC(=N)N)NC(=O)[C@H](CO)NC(=O)[C@H](CC(C)C)NC(=O)[C@H](CC(C)C)NC(=O)CNC(=O)[C@H](C)NC(=O)[C@H](CC(C)C)NC(=O)[C@H](CCCNC(=N)N)NC(=O)[C@H](Cc2c[nH]cn2)NC(=O)[C@@H](NC(=O)[C@@H](N)C(C)C)[C@@H](C)O)C(=O)N[C@H](C(=O)N[C@H](C(=O)N[C@@H](CCCCN)C(=O)N[C@@H](CC(N)=O)C(=O)N[C@@H](CC(N)=O)C(=O)N[C@@H](Cc2ccccc2)C(=O)N[C@H](C(=O)N2CCC[C@H]2C(=O)N[C@H](C(=O)N[C@@H](CC(N)=O)C(=O)N[C@H](C(=O)NCC(=O)N[C@@H](CO)C(=O)N[C@@H](CCCCN)C(=O)N[C@@H](C)C(=O)N[C@@H](Cc2ccccc2)C(N)=O)C(C)C)[C@@H](C)O)C(C)C)C(C)C)C(C)C)nn1)C(=O)N[C@H](C(=O)N[C@@H](CCCCN)C(=O)N[C@@H](CC(N)=O)C(=O)N[C@@H](CCCCN)C(N)=O)C(C)C)C(C)C)C(C)C,ADCYAP1R1 del89-109,"cAMP accumulation, antagonist",COS-7 transfected,"from pA2, single concentration, added: PACAP-38",,Kb,3800 nM
O=C1NC2(CC2)COc2ncc(F)cc2[C@H]2COCCN2c2ccn3ncc1c3n2,,,"Sprague-Dawley rat, female, serum","oral, 20 mg/kg/day, end of treatment, 4-week subacute toxicity",,serum total bilirubin,0.9 ± 0.4 µmol/L
CSCC[C@H](NC(=O)[C@H](CCC(N)=O)NC(=O)[C@H](CCCCN)NC(=O)[C@H](CCCNC(=N)N)NC(=O)[C@H](Cc1ccc(O)cc1)NC(=O)[C@H](CCCNC(=N)N)NC(=O)[C@H](CO)NC(=O)[C@H](Cc1ccc(O)cc1)NC(=O)[C@H](CO)NC(=O)[C@H](CC(=O)O)NC(=O)[C@@H](NC(=O)[C@@H](N)Cc1ccccc1)[C@@H](C)O)C(=O)N[C@@H](C)C(=O)N[C@H](C(=O)N[C@@H](CCCCN)C(=O)N[C@@H](CCCCN)C(=O)N[C@@H](Cc1ccc(O)cc1)C(=O)N[C@@H](CC(C)C)C(=O)N[C@@H](C)C(=O)N[C@@H](C)C(=O)N[C@H](C(=O)N[C@@H](CC(C)C)C(=O)NCC(=O)N[C@@H](CCCCN)C(=O)N[C@@H](CCCNC(=N)N)C(=O)N[C@@H](Cc1ccc(O)cc1)C(=O)N[C@@H](CCCCN)C(=O)N[C@@H](CCC(N)=O)C(=O)N[C@@H](CCCNC(=N)N)C(=O)N[C@H](C(=O)N[C@@H](CCCCN)C(=O)N[C@@H](CC(N)=O)C(=O)N[C@@H](CCCCn1cc(C[C@H](NC(=O)CNC(=O)[C@H](CO)NC(=O)[C@H](CCCNC(=N)N)NC(=O)[C@H](CO)NC(=O)[C@H](CC(C)C)NC(=O)[C@H](CC(C)C)NC(=O)CNC(=O)[C@H](C)NC(=O)[C@H](CC(C)C)NC(=O)[C@H](CCCNC(=N)N)NC(=O)[C@H](Cc2c[nH]cn2)NC(=O)[C@@H](NC(=O)[C@@H](N)C(C)C)[C@@H](C)O)C(=O)N[C@H](C(=O)N[C@H](C(=O)N[C@@H](CCCCN)C(=O)N[C@@H](CC(N)=O)C(=O)N[C@@H](CC(N)=O)C(=O)N[C@@H](Cc2ccccc2)C(=O)N[C@H](C(=O)N2CCC[C@H]2C(=O)N[C@H](C(=O)N[C@@H](CC(N)=O)C(=O)N[C@H](C(=O)NCC(=O)N[C@@H](CO)C(=O)N[C@@H](CCCCN)C(=O)N[C@@H](C)C(=O)N[C@@H](Cc2ccccc2)C(N)=O)C(C)C)[C@@H](C)O)C(C)C)C(C)C)C(C)C)nn1)C(N)=O)C(C)C)C(C)C)C(C)C,ADCYAP1R1 del89-109,"cAMP, antagonist",,,,Kb,> 10000 nM
COc1ccccc1-c1n[nH]c2nc(NC3CCN(C(=O)Cc4ccc(F)cc4F)CC3)ncc12,,"bead binding, competition bead pull-down, refers to: LINJ.22.0350",Leishmania donovani extract,10 µM,relative to: vehicle,relative abundance,1.08
CSCC[C@H](NC(=O)[C@H](CCC(N)=O)NC(=O)[C@H](CCCCN)NC(=O)[C@H](CCCNC(=N)N)NC(=O)[C@H](Cc1ccc(O)cc1)NC(=O)[C@H](CCCNC(=N)N)NC(=O)[C@H](CO)NC(=O)[C@H](Cc1ccc(O)cc1)NC(=O)[C@H](CO)NC(=O)[C@H](CC(=O)O)NC(=O)[C@@H](NC(=O)[C@@H](N)Cc1ccccc1)[C@@H](C)O)C(=O)N[C@@H](C)C(=O)N[C@H](C(=O)N[C@@H](CCCCN)C(=O)N[C@@H](CCCCn1cc(C[C@H](NC(=O)CNC(=O)[C@H](CO)NC(=O)[C@H](CCCNC(=N)N)NC(=O)[C@H](CO)NC(=O)[C@H](CC(C)C)NC(=O)[C@H](CC(C)C)NC(=O)CNC(=O)[C@H](C)NC(=O)[C@H](CC(C)C)NC(=O)[C@H](CCCNC(=N)N)NC(=O)[C@H](Cc2c[nH]cn2)NC(=O)[C@@H](NC(=O)[C@@H](N)C(C)C)[C@@H](C)O)C(=O)N[C@H](C(=O)N[C@H](C(=O)N[C@@H](CCCCN)C(=O)N[C@@H](CC(N)=O)C(=O)N[C@@H](CC(N)=O)C(=O)N[C@@H](Cc2ccccc2)C(=O)N[C@H](C(=O)N2CCC[C@H]2C(=O)N[C@H](C(=O)N[C@@H](CC(N)=O)C(=O)N[C@H](C(=O)NCC(=O)N[C@@H](CO)C(=O)N[C@@H](CCCCN)C(=O)N[C@@H](C)C(=O)N[C@@H](Cc2ccccc2)C(N)=O)C(C)C)[C@@H](C)O)C(C)C)C(C)C)C(C)C)nn1)C(=O)N[C@@H](Cc1ccc(O)cc1)C(=O)N[C@@H](CC(C)C)C(=O)N[C@@H](C)C(=O)N[C@@H](C)C(=O)N[C@H](C(=O)N[C@@H](CC(C)C)C(=O)NCC(=O)N[C@@H](CCCCN)C(=O)N[C@@H](CCCNC(=N)N)C(=O)N[C@@H](Cc1ccc(O)cc1)C(=O)N[C@@H](CCCCN)C(=O)N[C@@H](CCC(N)=O)C(=O)N[C@@H](CCCNC(=N)N)C(=O)N[C@H](C(=O)N[C@@H](CCCCN)C(=O)N[C@@H](CC(N)=O)C(=O)N[C@@H](CCCCN)C(N)=O)C(C)C)C(C)C)C(C)C,"ADCYAP1R1 (Homo sapiens, UniProt P41586)","cAMP accumulation, antagonist",,added: PACAP-27,,Kb,138 nM
CC(C)(C)C(=O)OCOP(=O)(OCOC(=O)C(C)(C)C)C1CCCN(O)C1=O (stereo not shown),OVCAR-5,,,,,log LC50,> -4 log M

# Excerpt of the above:
Compound,tested on,test,system,conditions,scale,endpoint,value
Cc1ccc2c(C(C[N+](=O)[O-])c3cccs3)c(-c3ccccc3)[nH]c2c1 (stereo not shown),"CNR1 (Homo sapiens, UniProt P21554, N393A)","receptor activation, agonist",,,,EC50,280 ± 70 nM
CC(=O)N[C@@H](CCCNC(=N)N)C(=O)N[C@@H](Cc1ccc(O)cc1)C(=O)N[C@H]1CCCNC(=N)NC(=O)NCCCCNC(=O)[C@H](Cc2ccc(O)cc2)NC(=O)[C@H](CCCNC(=N)N)NC(=O)[C@H](CC(C)C)NC1=O,NPY4R,"β-arrestin-2 recruitment, antagonist",HEK293T-ARRB2,added: 3 nM human pancreatic polypeptide,,Kb,1880 ± 320 nM
